Measurements pooled from the literature.
Numbered parts are unrelated; each lists some results of a single study.
Chain of UniProt O75460 (whole entry, looked up): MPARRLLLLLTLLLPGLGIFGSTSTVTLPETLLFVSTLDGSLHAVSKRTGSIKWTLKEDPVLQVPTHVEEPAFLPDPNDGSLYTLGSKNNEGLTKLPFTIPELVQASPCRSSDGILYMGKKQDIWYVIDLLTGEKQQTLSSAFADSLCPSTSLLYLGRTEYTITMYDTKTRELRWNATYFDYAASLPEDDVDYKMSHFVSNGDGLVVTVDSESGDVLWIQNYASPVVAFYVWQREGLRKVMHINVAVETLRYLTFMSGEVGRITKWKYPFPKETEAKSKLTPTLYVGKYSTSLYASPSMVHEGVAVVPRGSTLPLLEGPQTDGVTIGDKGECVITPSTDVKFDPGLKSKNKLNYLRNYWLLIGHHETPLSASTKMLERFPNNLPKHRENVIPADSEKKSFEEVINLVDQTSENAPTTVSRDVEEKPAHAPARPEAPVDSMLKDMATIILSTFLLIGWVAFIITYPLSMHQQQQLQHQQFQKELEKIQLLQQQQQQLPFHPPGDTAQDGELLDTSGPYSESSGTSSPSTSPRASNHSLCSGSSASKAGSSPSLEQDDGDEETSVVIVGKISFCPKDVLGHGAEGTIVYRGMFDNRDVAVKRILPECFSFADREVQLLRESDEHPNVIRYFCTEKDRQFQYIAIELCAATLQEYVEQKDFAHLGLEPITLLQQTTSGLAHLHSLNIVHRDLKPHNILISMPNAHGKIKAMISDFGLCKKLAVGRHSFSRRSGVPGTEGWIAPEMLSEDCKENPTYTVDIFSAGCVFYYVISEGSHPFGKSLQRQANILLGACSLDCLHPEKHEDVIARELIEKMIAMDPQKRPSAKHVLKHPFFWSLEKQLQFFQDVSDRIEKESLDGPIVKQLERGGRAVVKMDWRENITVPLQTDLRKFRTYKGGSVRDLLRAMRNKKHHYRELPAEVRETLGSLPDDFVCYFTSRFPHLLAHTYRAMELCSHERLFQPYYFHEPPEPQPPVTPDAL
Chain of UniProt Q9Y2I7 (whole entry, looked up): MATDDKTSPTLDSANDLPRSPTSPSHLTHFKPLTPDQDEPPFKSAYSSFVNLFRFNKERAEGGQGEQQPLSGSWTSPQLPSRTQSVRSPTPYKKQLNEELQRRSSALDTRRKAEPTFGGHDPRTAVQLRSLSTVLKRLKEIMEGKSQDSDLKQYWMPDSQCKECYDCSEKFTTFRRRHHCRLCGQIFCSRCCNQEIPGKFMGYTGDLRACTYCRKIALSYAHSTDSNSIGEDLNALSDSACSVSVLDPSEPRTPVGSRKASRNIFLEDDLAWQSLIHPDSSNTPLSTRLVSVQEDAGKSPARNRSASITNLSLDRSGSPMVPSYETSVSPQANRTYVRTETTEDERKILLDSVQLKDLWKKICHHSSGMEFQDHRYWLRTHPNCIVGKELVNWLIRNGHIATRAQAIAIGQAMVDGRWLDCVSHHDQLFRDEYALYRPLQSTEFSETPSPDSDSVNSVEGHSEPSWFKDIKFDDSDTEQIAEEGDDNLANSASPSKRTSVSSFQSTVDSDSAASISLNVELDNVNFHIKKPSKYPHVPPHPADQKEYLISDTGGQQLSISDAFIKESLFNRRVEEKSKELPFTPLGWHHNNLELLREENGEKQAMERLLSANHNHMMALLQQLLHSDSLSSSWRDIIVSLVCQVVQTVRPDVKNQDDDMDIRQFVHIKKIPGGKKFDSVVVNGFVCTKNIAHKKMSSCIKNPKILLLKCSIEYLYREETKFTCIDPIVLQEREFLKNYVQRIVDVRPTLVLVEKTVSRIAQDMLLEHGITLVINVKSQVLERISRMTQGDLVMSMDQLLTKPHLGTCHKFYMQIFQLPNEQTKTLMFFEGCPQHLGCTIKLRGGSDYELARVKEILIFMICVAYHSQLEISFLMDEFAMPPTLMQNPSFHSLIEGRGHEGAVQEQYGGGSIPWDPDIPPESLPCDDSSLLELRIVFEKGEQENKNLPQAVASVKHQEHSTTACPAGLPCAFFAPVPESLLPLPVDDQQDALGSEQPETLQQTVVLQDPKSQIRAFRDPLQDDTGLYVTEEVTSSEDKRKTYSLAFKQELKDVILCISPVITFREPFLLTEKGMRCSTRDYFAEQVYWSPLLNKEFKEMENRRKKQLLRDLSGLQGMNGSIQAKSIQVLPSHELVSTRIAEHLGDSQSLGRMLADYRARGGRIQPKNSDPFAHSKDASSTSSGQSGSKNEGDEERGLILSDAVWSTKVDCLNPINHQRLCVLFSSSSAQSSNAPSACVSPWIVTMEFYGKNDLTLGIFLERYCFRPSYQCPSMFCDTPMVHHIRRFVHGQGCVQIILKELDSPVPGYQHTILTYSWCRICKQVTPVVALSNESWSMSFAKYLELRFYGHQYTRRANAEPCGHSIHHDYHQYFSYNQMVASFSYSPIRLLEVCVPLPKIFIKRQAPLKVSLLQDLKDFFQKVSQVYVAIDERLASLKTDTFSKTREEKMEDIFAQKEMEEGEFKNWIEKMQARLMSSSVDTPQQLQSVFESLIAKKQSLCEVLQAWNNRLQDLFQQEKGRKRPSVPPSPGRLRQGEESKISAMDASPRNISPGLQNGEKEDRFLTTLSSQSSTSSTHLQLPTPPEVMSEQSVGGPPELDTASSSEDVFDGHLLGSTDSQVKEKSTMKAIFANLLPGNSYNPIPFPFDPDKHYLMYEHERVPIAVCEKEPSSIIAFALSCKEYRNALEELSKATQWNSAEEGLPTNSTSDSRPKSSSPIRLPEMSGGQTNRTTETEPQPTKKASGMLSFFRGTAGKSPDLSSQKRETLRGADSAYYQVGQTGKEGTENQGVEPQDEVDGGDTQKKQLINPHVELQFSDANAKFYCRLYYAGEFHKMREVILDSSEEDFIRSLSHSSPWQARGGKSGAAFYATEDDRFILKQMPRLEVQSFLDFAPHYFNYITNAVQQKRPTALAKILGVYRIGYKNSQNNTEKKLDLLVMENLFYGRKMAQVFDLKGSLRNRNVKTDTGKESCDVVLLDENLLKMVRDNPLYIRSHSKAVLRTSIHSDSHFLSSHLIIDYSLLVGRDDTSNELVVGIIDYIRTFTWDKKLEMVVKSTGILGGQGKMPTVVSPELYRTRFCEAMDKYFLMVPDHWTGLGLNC
Chain of UniProt Q9HC98 (whole entry, looked up): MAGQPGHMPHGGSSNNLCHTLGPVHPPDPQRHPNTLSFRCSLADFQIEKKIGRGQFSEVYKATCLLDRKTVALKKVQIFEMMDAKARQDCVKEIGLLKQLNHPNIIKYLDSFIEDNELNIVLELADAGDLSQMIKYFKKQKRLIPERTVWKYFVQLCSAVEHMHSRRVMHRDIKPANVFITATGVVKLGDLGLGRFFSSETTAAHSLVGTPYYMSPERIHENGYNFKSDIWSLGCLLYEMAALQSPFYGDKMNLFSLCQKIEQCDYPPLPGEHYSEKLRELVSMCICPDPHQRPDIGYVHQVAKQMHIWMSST
Chain of UniProt P16234 (whole entry, looked up): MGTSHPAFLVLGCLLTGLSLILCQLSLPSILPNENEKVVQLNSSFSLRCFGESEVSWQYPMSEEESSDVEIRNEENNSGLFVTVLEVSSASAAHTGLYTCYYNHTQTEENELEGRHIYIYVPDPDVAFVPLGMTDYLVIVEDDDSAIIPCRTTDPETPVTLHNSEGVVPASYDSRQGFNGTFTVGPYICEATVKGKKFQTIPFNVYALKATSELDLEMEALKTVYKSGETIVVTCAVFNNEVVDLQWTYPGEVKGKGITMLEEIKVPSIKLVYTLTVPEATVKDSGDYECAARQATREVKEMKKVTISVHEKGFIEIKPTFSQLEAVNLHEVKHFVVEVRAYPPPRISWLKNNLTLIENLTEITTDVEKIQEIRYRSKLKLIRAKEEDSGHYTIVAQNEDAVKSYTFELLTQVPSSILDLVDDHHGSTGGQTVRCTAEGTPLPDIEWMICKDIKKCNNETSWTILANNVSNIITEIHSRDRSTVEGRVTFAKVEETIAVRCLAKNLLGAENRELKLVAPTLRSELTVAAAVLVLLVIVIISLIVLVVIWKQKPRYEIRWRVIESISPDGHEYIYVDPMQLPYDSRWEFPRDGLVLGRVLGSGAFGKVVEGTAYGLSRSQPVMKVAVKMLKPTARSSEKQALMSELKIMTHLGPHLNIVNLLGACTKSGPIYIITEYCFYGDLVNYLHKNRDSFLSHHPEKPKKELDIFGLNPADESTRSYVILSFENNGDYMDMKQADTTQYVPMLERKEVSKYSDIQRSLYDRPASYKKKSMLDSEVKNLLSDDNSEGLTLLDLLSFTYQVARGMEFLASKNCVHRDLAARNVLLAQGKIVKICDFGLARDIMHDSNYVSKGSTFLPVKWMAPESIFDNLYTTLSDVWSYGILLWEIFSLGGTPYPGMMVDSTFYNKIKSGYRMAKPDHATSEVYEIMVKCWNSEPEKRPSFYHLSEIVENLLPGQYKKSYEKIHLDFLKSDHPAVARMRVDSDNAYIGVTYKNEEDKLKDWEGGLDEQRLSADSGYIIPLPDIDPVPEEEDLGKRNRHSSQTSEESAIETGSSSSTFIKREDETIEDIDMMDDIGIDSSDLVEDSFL

Series 1
SMILES: CNC(=O)c1ccc(Nc2ncc(C(F)(F)F)c(NCc3nccnc3N(C)S(C)(=O)=O)n2)cc1
Observed: cell-free assay
Technique: competition with immobilised ligand
Concentration: 0.1 µM
For Receptor-type tyrosine-protein kinase FLT3 (FLT3, Homo sapiens, UniProt P36888, D835V/ITD): remaining binding read 14%.
For Cyclin-dependent kinase-like 3 (CDKL3, Homo sapiens, UniProt Q8IVW4): remaining binding read 92%.
It gave 100% for remaining binding (Ribosomal protein S6 kinase alpha-3, C-terminal kinase domain (RPS6KA3, Homo sapiens, UniProt P51812)).
For Serine/threonine-protein kinase D2 (PRKD2, Homo sapiens, UniProt Q9BZL6): remaining binding read 100%.
The remaining binding was 79% (Cyclin-dependent kinase-like 2 (CDKL2, Homo sapiens, UniProt Q92772)).
For Epidermal growth factor receptor (EGFR, Homo sapiens, UniProt P00533, G719C): remaining binding read 94%.
1-phosphatidylinositol 3-phosphate 5-kinase (PIKFYVE, Homo sapiens, UniProt Q9Y2I7) — remaining binding: 100%.
The remaining binding was 100% (Macrophage colony-stimulating factor 1 receptor (CSF1R, Homo sapiens, UniProt P07333)).
For Casein kinase I isoform alpha-like (CSNK1A1L, Homo sapiens, UniProt Q8N752): remaining binding read 77%.
It gave 85% for remaining binding (Serine/threonine-protein kinase RIO2 (RIOK2, Homo sapiens, UniProt Q9BVS4)).
Serine/threonine-protein kinase Nek6 (NEK6, Homo sapiens, UniProt Q9HC98) — remaining binding: 81%.
G protein-coupled receptor kinase 4 (GRK4, Homo sapiens, UniProt P32298) — remaining binding: 98%.
It gave 90% for remaining binding (Serine/threonine-protein kinase tousled-like 2 (TLK2, Homo sapiens, UniProt Q86UE8)).
For Fibroblast growth factor receptor 3 (FGFR3, Homo sapiens, UniProt P22607): remaining binding read 78%.
For Serine/threonine-protein kinase/endoribonuclease IRE1 (ERN1, Homo sapiens, UniProt O75460): remaining binding read 75%.
For Platelet-derived growth factor receptor alpha (PDGFRA, Homo sapiens, UniProt P16234): remaining binding read 77%.
Tyrosine-protein kinase ABL2 (ABL2, Homo sapiens, UniProt P42684) — remaining binding: 93%.
For Microtubule-associated serine/threonine-protein kinase 1 (MAST1, Homo sapiens, UniProt Q9Y2H9): remaining binding read 100%.
It gave 75% for remaining binding (Serine/threonine-protein kinase ULK3 (ULK3, Homo sapiens, UniProt Q6PHR2)).
For Mitogen-activated protein kinase 11 (MAPK11, Homo sapiens, UniProt Q15759): remaining binding read 76%.
It gave 68% for remaining binding (Ephrin type-A receptor 7 (EPHA7, Homo sapiens, UniProt Q15375)).
The remaining binding was 90% (Mitogen-activated protein kinase kinase kinase 6 (MAP3K6, Homo sapiens, UniProt O95382)).
The remaining binding was 100% (cGMP-dependent protein kinase 1 (PRKG1, Homo sapiens, UniProt Q13976)).
It gave 100% for remaining binding (Serine/threonine-protein kinase PAK 3 (PAK3, Homo sapiens, UniProt O75914)).
Calcium/calmodulin-dependent protein kinase type 1 (CAMK1, Homo sapiens, UniProt Q14012) — remaining binding: 100%.

Series 2
Host: mouse
Sample: microsomes or S9
Concentration: 2 µM
Time: 0.5 h
`Cc1cc(C)c(S(=O)(=O)N2CCCCC2)c(C)c1N(C)S(C)(=O)=O` gave a remaining compound of 1.77%.
For `COc1cc(-c2c3oc4cc(O)ccc4c3nc3c2c(O)nn3C2CCCCC2)ccc1O`, the remaining compound was 0.286%.
`O=C(Nc1cnccn1)c1cnc(-c2ncccn2)s1` gave a remaining compound of over 100%.
`Clc1ccccc1C1NCCc2c1[nH]c1ccccc21` (stereo not shown) gave a remaining compound of 19.5%.
`CCn1nc(CN[C@@H]2CCC(=O)N[C@H]2c2ccnn2C)c2ccccc21` has a remaining compound of 55.9%.
With `CCn1ccnc1C(O)c1cc(OC)ccc1OC` (stereo not shown) the remaining compound was 60.6%.
The remaining compound of `CC(C)c1nc(-c2cc3ccccc3nc2O)no1` is reported as 0.0245%.
With `O=C(O)C1C[S+]([O-])C2c3ccccc3C(=O)N12` (stereo not shown) the remaining compound was 36.1%.

Series 3
Target: Calcium/calmodulin-dependent protein kinase type II subunit alpha (CAMK2A, Homo sapiens, UniProt Q9UQM7)
Chain of UniProt Q9UQM7 (whole entry, looked up): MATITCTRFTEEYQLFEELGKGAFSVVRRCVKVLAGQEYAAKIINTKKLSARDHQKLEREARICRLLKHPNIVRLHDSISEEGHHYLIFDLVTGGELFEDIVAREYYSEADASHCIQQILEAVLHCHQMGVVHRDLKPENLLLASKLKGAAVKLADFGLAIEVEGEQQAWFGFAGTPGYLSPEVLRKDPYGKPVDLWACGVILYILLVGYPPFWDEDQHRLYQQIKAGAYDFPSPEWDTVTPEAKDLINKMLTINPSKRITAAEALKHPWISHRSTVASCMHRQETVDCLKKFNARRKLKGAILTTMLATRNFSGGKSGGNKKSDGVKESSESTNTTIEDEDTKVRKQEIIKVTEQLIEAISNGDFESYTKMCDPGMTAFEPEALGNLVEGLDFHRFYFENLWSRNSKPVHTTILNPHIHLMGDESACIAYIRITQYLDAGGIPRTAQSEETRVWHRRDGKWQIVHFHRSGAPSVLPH
Observed: enzyme activity
Action: inhibitor
Concentration: 10 µM
With `O=C(CCC/C=C\C[C@@H]1[C@@H](CC[C@@H](O)CCc2ccccc2)[C@H](O)C[C@@H]1O)OCCCCO[N+](=O)[O-]` the inhibition was -5%.
With `CC1(C)CCC(CN2CCN(c3ccc(C(=O)NS(=O)(=O)c4ccc(NCC5CCOCC5)c([N+](=O)[O-])c4)c(Oc4cnc5[nH]ccc5c4)c3)CC2)=C(c2ccc(Cl)cc2)C1` the inhibition was -4%.
For `CCOC(=O)C1=C(C)NC(C)=C(C(=O)OC)C1c1cccc(Cl)c1Cl` (stereo not shown), the inhibition was -12%.
`O=C1C=C2C=C[C@@H](O)[C@H](O)[C@H]2O1` has an inhibition of -20%.
`CC(C(=O)O)c1ccccc1` (stereo not shown) has an inhibition of 16%.
The inhibition of `CC(=O)OC[C@H]1O[C@@H](O[C@@H]2[C@@H](O)[C@H](O[C@@H]3[C@H](O)C(C)(C)C[C@H]4C5=CC[C@@H]6[C@@]7(C)CC[C@H](O[C@@H]8O[C@H](C(=O)O)[C@@H](O)[C@H](O)[C@H]8O[C@@H]8O[C@H](CO)[C@H](O)[C@H](O)[C@H]8O[C@@H]8O[C@H](CO)[C@@H](O)[C@H](O)[C@H]8O)[C@](C)(CO)[C@@H]7CC[C@@]6(C)[C@]5(C)CC[C@@]34C)OC[C@@H]2O)[C@H](OC(C)=O)[C@@H](OC(C)=O)[C@@H]1OC(C)=O` is reported as -15%.

Series 4
Target: panel of 300 human kinases
Concentration: 0.5 µM
Direction: higher = more selective
The Gini score of `Cc1cc(C)c(C=C2C(=O)Nc3ccccc32)[nH]1` is reported as 0.6.
The Gini score of `NC(=O)c1ccc(N(C(N)=O)c2c(F)cccc2F)nc1-c1ccc(F)cc1F` is reported as 0.73.
The Gini score of `N#C/C(=C\c1ccc(O)c(O)c1)C(=O)NCc1ccccc1` is reported as 0.66.
The Gini score of `Cc1cc(Nc2nc(-c3ccccc3)nc3ccccc23)n[nH]1` is reported as 0.57.
For `Cc1cc2ncc(-c3ccccc3)nc2cc1C`, the Gini score was 0.6.
With `O=C1Nc2ccc(Cl)cc2C1=Cc1cc(Cl)c(O)c(Cl)c1` the Gini score was 0.6.
The Gini score of `Fc1ccc(-c2nc3n(c2-c2ccncc2)CCS3)cc1` is reported as 0.75.

Series 5
Structure (SMILES): O=C(Nc1cnn(-c2csc(C(=O)NC3COC3)c2)c1)Nc1ccccc1Cl
Observed: enzyme activity
Concentration: 5 µM
Mitogen-activated protein kinase kinase kinase 9 (MAP3K9, Homo sapiens, UniProt P80192); baseline: untreated control — remaining activity: 94.2%.
The remaining activity was 94.3% (Serine/threonine-protein kinase PLK1 (PLK1, Homo sapiens, UniProt P53350); baseline: untreated control).
For Serine/threonine-protein kinase N1 (PKN1, Homo sapiens, UniProt Q16512); baseline: untreated control: remaining activity read 108%.
It gave 96.7% for remaining activity (Serine/threonine-protein kinase greatwall (MASTL, Homo sapiens, UniProt Q96GX5); inhibitor).
Serine/threonine-protein kinase/endoribonuclease IRE1 (ERN1, Homo sapiens, UniProt O75460); baseline: untreated control — remaining activity: 93.9%.
It gave 88.4% for remaining activity (Receptor-type tyrosine-protein kinase FLT3 (FLT3, Homo sapiens, UniProt P36888); baseline: untreated control).
For Calcium/calmodulin-dependent protein kinase type 1D (CAMK1D, Homo sapiens, UniProt Q8IU85); baseline: untreated control: remaining activity read 101%.
MAP kinase-activated protein kinase 3 (MAPKAPK3, Homo sapiens, UniProt Q16644); baseline: untreated control — remaining activity: 77.3%.
For Mitogen-activated protein kinase 13 (MAPK13, Homo sapiens, UniProt O15264); baseline: untreated control: remaining activity read 120%.

Repeated from above (series 1):
1-phosphatidylinositol 3-phosphate 5-kinase (PIKFYVE, Homo sapiens, UniProt Q9Y2I7) — remaining binding: 100%.
For Receptor-type tyrosine-protein kinase FLT3 (FLT3, Homo sapiens, UniProt P36888, D835V/ITD): remaining binding read 14%.
It gave 90% for remaining binding (Serine/threonine-protein kinase tousled-like 2 (TLK2, Homo sapiens, UniProt Q86UE8)).
It gave 100% for remaining binding (Serine/threonine-protein kinase PAK 3 (PAK3, Homo sapiens, UniProt O75914)).
It gave 85% for remaining binding (Serine/threonine-protein kinase RIO2 (RIOK2, Homo sapiens, UniProt Q9BVS4)).
For Cyclin-dependent kinase-like 3 (CDKL3, Homo sapiens, UniProt Q8IVW4): remaining binding read 92%.
For Fibroblast growth factor receptor 3 (FGFR3, Homo sapiens, UniProt P22607): remaining binding read 78%.
Calcium/calmodulin-dependent protein kinase type 1 (CAMK1, Homo sapiens, UniProt Q14012) — remaining binding: 100%.
